Measured values of several laboratories.
Values joined by “and” are separate records of one study, mostly repeats; a detail may differ.
MAOA: Amine oxidase [flavin-containing] A (MAOA, Homo sapiens, UniProt P21397)
Chain of UniProt P21397 (whole entry, looked up): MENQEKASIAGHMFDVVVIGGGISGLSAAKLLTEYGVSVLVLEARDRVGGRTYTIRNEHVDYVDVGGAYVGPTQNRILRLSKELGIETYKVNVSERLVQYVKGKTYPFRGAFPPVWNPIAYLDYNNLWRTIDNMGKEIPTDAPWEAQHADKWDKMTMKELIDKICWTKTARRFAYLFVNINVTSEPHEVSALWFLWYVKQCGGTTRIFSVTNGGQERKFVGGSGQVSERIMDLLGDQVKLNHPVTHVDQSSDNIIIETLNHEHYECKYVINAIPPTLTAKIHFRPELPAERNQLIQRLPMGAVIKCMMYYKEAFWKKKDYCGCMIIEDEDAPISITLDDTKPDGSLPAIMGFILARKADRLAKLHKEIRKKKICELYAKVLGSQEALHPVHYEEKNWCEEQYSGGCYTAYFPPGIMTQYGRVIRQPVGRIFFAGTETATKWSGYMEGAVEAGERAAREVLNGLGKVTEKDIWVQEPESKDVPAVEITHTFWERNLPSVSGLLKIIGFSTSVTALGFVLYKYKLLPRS
Cereblon/Ikaros: Cereblon/Ikaros (Homo sapiens, UniProt Q13422+Q96SW2)
IL1RL2: Interleukin-1 receptor-like 2 (IL1RL2, Homo sapiens, UniProt Q9HB29)
Chain of UniProt Q9HB29 (whole entry, looked up): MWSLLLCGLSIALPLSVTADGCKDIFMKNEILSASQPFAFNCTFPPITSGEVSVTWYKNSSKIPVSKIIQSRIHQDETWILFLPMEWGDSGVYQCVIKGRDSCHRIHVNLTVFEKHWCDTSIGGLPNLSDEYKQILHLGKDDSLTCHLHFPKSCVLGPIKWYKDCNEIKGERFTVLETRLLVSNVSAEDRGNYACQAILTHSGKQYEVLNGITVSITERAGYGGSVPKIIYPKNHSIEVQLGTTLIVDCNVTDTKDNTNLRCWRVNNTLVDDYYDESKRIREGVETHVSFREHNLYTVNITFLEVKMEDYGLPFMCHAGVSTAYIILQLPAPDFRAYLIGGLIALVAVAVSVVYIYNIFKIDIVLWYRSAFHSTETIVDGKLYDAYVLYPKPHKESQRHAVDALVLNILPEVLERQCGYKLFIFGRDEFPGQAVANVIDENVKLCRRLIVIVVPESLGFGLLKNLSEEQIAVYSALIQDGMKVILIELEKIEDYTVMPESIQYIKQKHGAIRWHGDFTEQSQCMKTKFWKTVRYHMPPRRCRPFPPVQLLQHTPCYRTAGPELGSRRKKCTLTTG
Chain of UniProt P63085 (whole entry, looked up): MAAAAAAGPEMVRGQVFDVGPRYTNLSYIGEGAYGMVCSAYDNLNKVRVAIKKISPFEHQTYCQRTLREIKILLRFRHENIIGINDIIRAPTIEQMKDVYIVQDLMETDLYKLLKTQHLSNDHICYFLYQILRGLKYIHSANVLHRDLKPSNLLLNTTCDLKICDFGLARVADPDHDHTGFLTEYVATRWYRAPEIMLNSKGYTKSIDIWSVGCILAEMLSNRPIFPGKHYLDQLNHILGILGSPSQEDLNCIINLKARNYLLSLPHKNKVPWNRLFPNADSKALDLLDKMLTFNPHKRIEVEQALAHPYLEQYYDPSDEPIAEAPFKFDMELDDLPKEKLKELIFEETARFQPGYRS
Chain of UniProt Q05513 (whole entry, looked up): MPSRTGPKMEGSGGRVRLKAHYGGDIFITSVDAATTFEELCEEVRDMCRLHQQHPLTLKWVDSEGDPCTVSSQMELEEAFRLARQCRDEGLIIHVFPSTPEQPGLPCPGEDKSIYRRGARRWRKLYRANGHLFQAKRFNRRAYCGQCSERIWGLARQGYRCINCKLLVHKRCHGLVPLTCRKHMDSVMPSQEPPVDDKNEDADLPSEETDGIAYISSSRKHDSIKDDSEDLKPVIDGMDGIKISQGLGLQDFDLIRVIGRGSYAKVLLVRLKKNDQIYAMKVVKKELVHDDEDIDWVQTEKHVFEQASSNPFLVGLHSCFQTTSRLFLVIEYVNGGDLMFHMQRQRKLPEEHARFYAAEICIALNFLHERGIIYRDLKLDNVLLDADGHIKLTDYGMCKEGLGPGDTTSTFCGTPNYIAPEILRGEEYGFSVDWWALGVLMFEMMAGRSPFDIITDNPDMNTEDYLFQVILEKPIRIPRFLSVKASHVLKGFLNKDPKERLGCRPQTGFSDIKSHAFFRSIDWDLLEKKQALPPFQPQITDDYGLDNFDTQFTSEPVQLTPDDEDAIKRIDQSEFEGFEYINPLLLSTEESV
Chain of UniProt P09238 (whole entry, looked up): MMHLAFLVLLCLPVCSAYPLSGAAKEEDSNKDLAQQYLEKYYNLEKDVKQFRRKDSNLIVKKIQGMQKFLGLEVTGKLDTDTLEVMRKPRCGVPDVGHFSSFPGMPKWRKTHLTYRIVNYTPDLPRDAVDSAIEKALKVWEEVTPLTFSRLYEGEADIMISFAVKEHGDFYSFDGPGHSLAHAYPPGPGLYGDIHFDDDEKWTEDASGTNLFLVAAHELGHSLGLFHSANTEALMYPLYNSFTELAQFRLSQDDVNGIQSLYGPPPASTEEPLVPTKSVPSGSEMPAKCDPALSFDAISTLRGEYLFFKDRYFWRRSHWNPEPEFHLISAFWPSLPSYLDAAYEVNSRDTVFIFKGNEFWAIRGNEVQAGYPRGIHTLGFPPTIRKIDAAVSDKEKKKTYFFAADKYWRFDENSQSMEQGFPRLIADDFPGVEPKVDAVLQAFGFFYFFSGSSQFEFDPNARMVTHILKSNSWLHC
Chain of UniProt Q6PJP8 (whole entry, looked up): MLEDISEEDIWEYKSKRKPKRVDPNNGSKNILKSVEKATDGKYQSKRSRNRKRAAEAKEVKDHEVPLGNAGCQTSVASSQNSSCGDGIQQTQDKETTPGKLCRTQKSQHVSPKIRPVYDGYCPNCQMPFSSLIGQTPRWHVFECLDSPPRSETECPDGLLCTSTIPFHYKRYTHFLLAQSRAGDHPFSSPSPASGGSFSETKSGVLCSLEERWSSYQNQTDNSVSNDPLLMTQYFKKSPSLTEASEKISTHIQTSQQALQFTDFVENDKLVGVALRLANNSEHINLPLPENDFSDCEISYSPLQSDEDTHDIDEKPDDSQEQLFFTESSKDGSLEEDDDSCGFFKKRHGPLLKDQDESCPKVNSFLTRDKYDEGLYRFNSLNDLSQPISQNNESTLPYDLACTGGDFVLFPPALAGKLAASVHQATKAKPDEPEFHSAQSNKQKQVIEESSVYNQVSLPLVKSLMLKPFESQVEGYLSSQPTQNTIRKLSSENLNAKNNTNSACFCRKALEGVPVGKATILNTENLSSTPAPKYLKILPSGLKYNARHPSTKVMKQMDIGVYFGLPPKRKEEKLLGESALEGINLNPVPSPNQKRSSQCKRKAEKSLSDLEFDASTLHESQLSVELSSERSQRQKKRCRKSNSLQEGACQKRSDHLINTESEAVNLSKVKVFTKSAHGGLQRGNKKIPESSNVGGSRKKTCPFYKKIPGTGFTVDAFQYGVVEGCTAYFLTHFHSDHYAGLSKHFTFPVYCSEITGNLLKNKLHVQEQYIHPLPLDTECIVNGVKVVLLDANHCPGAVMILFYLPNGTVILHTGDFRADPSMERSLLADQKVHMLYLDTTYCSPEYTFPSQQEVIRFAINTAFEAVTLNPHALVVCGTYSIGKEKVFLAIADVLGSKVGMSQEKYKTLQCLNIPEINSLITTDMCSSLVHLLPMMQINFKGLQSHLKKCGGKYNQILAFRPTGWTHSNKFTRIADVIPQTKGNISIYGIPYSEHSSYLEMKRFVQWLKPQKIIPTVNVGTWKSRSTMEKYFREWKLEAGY
Chain of UniProt Q6VAB6 (whole entry, looked up): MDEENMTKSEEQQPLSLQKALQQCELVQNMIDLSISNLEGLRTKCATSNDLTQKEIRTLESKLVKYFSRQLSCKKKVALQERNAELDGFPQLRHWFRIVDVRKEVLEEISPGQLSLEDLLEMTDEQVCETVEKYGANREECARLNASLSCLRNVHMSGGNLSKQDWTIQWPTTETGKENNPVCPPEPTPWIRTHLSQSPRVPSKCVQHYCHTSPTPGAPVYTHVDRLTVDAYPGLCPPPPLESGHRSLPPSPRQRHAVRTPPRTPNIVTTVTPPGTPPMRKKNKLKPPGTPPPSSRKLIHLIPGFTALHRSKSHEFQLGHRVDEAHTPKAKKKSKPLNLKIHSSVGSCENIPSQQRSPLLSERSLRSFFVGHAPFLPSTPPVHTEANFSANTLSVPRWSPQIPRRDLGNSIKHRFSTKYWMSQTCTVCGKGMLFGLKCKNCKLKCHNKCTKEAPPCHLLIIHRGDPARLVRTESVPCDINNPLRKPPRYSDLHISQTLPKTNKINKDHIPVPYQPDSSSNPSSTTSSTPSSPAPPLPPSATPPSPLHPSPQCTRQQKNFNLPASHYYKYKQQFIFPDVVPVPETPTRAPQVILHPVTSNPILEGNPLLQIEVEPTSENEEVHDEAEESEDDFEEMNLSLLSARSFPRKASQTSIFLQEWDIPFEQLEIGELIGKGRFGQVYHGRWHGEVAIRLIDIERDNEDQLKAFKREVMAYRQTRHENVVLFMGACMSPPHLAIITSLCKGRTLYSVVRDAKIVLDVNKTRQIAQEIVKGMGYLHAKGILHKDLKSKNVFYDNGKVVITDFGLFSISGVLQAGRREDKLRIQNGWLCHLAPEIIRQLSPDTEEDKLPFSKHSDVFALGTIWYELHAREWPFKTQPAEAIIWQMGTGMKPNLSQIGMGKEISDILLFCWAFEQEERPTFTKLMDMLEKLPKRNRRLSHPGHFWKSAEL
Chain of UniProt Q16539 (whole entry, looked up): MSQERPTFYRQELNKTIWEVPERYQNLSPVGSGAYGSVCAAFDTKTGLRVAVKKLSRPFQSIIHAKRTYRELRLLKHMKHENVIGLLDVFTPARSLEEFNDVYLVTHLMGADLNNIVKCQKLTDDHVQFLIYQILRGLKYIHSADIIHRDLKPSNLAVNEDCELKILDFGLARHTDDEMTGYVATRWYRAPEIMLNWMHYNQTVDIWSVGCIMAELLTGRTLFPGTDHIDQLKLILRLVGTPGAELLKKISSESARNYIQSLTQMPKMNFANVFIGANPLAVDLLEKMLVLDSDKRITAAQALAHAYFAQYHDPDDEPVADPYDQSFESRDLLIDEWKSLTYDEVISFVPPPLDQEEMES

For `CC(C)c1ccc(/C=C/C(=O)c2ccc(Cl)cc2)cc1`, the remaining activity was 59.3% (MAOA; enzyme activity, inhibitor; 10 µM).
`COc1ccc(NC(=O)Nc2ccc3c(c2)C(=O)N(C(C)CO)CC(C)C(CN(C)Cc2ccc4c(c2)OCO4)O3)cc1` (stereo not shown) has a remaining activity of 78% (Mitogen-activated protein kinase 1 (Mapk1, Mus musculus, UniProt P63085); kinase activity, KinaseProfiler; 0.03 µM, species mouse; baseline: control).
For `CCOc1ccc(C(=O)/C=C/c2ccc(C(C)C)cc2)cc1`, the remaining activity was 45.9% (MAOA; enzyme activity, inhibitor; 10 µM).
The remaining activity of `O=C1CCC(N2C(=O)c3cccc4c(Cc5cnn(C6CCNCC6)c5)ccc2c34)C(=O)N1` (stereo not shown) is reported as 21.3% (Cereblon/Ikaros; protein level, degrader, western blot; NCI-H929; 10 nM, 4 h).
`C[C@](C(=O)NC1CCOCC1)(c1cncnc1)N(C(=O)[C@H](F)Cl)c1ccc(OC(F)(F)Cl)cc1` has a remaining activity of 102% (Stromelysin-2 (Homo sapiens, UniProt P09238); enzyme activity, inhibitor; 10 µM).
`O=C1CCC(N2C(=O)c3cccc4c(Cc5cnn(C6CCN(C(=O)CS)CC6)c5)ccc2c34)C(=O)N1` (stereo not shown) has a remaining activity of 98.7% (Cereblon/Ikaros; protein level, degrader, western blot; NCI-H929; 1 nM, 4 h).
`O=c1c(-c2ccc(Cl)c(CN3CCOCC3)c2)coc2cc(O)ccc12` gave a remaining activity of 103% (Serine/threonine-protein kinase ATR (ATR, Homo sapiens, UniProt Q13535); enzyme activity, inhibitor, KinaseProfiler; 1 µM, with: ATP at Km).
The remaining activity of `COc1ccccc1-c1ccncc1C(=O)Nc1nnc(OCc2ccc(Cl)cc2)s1` is reported as 22% (DNA polymerase theta, helicase domain (POLQ, Homo sapiens, UniProt O75417); ATPase activity, ADP-Glo; 0.48 µM; baseline: 0 µM cpd).
`COC(=O)[C@@]1(C)C=C(C(=O)Nc2cccc(C(=O)Nc3ccc(Nc4nccc(-c5cccnc5)n4)c(C)c3)c2)C(=O)CC1` gave a remaining activity of 0.389 (Mitogen-activated protein kinase 14 (MAPK14, Homo sapiens, UniProt Q16539); kinase activity, inhibitor; 44.44 µM, unit not given; baseline: no inhibitor).
With `O=C1CCC(N2C(=O)c3cccc4c(Cc5cnn(C6CCN(C(=O)C7(O)CC7)CC6)c5)ccc2c34)C(=O)N1` (stereo not shown) the remaining activity was 29.4% (Cereblon/Ikaros; protein level, degrader, western blot; NCI-H929; 1 nM, 4 h).
`CN(Cc1cc(C2CC2)on1)C(=O)c1cccc(-c2ccc3c(c2)CCO3)c1` has a remaining activity of 92% and 98.9% (Acetyl-CoA synthetase (Cryptococcus neoformans, UniProt J9VFT1); enzyme activity, inhibitor, coupled pyrophosphate; 12.5 µM).
For `Cc1cccc(-c2ccc3nc(NC(=O)C4CCCCC4)nn3c2)c1`, the remaining activity was 19% (Dual specificity tyrosine-phosphorylation-regulated kinase 3 (DYRK3, Homo sapiens, UniProt O43781); enzyme activity, Dundee kinase panel; 10 µM).
With `N#Cc1cnc2sc(C(=O)O)cc2c1N1CCc2[nH]nc(C(=O)N[C@@H](CC(=O)NCCOCCN3CCOCC3)c3cccc(Br)c3)c2C1` the remaining activity was 103% (IL1RL2; SEAP reporter gene, antagonist; HEK-Blue IL-36R cells; 100 µM, 6 h, with: IL-36β 0.003 ng/mL; baseline: untreated).
With `CC(C)(O)C(=O)N1CCC(n2cc(Cc3ccc4c5c(cccc35)C(=O)N4C3CCC(=O)NC3=O)cn2)CC1` (stereo not shown) the remaining activity was 31.6% (Cereblon/Ikaros; protein level, degrader, western blot; NCI-H929; 1 nM, 4 h).
The remaining activity of `CC(C)[C@@H]1NC(=O)[C@H](Cc2ccccc2)NC(=O)CSC[C@@H](C(N)=O)NC(=O)[C@H](CCC(=O)O)NC(=O)[C@H](CO)NC(=O)[C@H](Cc2c[nH]c3cccc(Cl)c23)NC(=O)[C@H](C2CCCCC2)NC(=O)[C@H](C(C)C)NC(=O)[C@H](Cc2ccc(O)cc2)NC(=O)[C@H](CC(=O)O)NC(=O)[C@H](Cc2c[nH]c3ccccc23)NC(=O)[C@H](Cc2ccc(N)nc2)NC(=O)[C@H](Cc2c[nH]c3ccc(Cl)cc23)NC(=O)[C@H](CCC(=O)O)NC1=O` is reported as 105% (IL1RL2; reporter gene (SEAP), inhibitor, HEK-Blue IL-36R reporter; HEK-Blue IL-36R cells; 0.005 µM, 6 h, with: IL-36γ 30 ng/mL).
With `Cc1ccc(C)c(-c2ccc3nc(NC(=O)C4CCCCC4)nn3c2)c1` the remaining activity was 76% (Protein kinase C zeta type (PRKCZ, Homo sapiens, UniProt Q05513); enzyme activity, Dundee kinase panel; 10 µM).
The remaining activity of `O=C1CCC(N2C(=O)c3cccc4c(Cc5cnn(C6CCN(C(=O)C7(O)CCC7)CC6)c5)ccc2c34)C(=O)N1` (stereo not shown) is reported as 4.32% (Cereblon/Ikaros; protein level, degrader, western blot; NCI-H929; 10 nM, 4 h).
`CC(=O)N1c2ccc(-c3ccc(CNC(=O)c4cn5cc(-c6cnc(N)nc6)nc(N6CCOCC6)c5n4)cc3)cc2CC[C@@H]1C` gave a remaining activity of 108% (Serine/threonine-protein kinase mTOR (MTOR, Homo sapiens, UniProt P42345); enzyme activity, inhibitor, radiometric; 1 µM).
`O=C1CCC(N2C(=O)c3cccc4c(Cc5cnn(C6CCN(C(=O)CO)CC6)c5)ccc2c34)C(=O)N1` (stereo not shown) gave a remaining activity of 14.2% (Cereblon/Ikaros; protein level, degrader, western blot; NCI-H929; 10 nM, 4 h).
`Nc1ncc(-c2cc(-c3cnn(CC(F)(F)F)c3)ncc2F)nc1C(=O)NC1CNCC(F)C1` (stereo not shown) gave a remaining activity of 91.8% (Kinase suppressor of Ras 2 (KSR2, Homo sapiens, UniProt Q6VAB6); enzyme activity; 1 µM; baseline: DMSO control).
The remaining activity of `O=C1CCC(N2C(=O)c3cccc4c(Cc5ccc(CN6CCNCC6)cc5)ccc2c34)C(=O)N1` (stereo not shown) is reported as 31.8% (Cereblon/Ikaros; protein level, degrader, western blot; NCI-H929; 10 nM, 4 h).
`O=C(O[C@@H]1Cc2c(O)cc(O)cc2O[C@@H]1c1cc(O)c(O)c(O)c1)c1cc(O)c(O)c(O)c1` has a remaining activity of 20.3% (DNA cross-link repair 1A protein (DCLRE1A, Homo sapiens, UniProt Q6PJP8); exonuclease activity, inhibitor, fluorescence HTS; 10 µM, 80 min, with: 8 nM 5P-FQ substrate).
